Measured values pooled from the literature.
Each line is one published result; not all experiments were run side by side.
Matrix: plasma

SMILES | test system | conditions | half-life [min]
O=C(CCc1ccc(CNC(C(=O)O)C2CCCCC2)cn1)NO (centres unmarked) | human | oral, 40 mg, multiple doses, once daily, patients | 45.2
CCc1cc(Nc2nc(-c3ccc(-n4cnc(C)c4)c(F)c3)cs2)c(C)cc1C | human | oral, 200 mg, multiple doses, once daily | 522
CC(=O)N[C@H](CSSC[C@H](N)C(=O)O)C(=O)N[C@H](C)C(=O)N[C@H](CCCNC(=N)N)C(=O)N[C@H](CCCNC(=N)N)C(=O)N[C@H](CCCNC(=N)N)C(=O)N[C@H](C)C(=O)N[C@H](CCCNC(=N)N)C(N)=O | male human | intravenous, 2 mg, single dose, healthy volunteers | 1200
CN1CCC[C@]1(C)/C=C/S(=O)(=O)NC(=O)Nc1c2c(cc3c1CCC3)CCC2 | human | oral, 50 mg, single dose, healthy volunteers | 348
CC12CC(c3ccc(S(C)(=O)=O)cc3)C3=C4CCC(=O)C=C4CCC3C1CCC2(O)C(F)(F)C(F)(F)F (centres unmarked) | human | intravenous, 15.7 µg | ~2400
CC(C)(O)c1ncc([S@](N)(=O)=NC(=O)Nc2c3c(cc4c2CCC4)CCC3)s1 | human | oral, 100 mg, single dose, fed, healthy volunteers | 586
[2H]C([2H])([2H])NC(=O)c1ccc(N2C(=S)N(c3ccc(C#N)c(C(F)(F)F)c3)C(=O)C2(C)C)cc1F | male human | oral, 80 mg, single dose, fasted | 6920
O=C(CCc1ccc(CNC(C(=O)OC2CCCC2)C2CCCCC2)cn1)NO (centres unmarked) | human | oral, 40 mg, multiple doses, once daily, patients | 24.5

Repeated from above:
SMILES | test system | conditions | half-life [min]
[2H]C([2H])([2H])NC(=O)c1ccc(N2C(=S)N(c3ccc(C#N)c(C(F)(F)F)c3)C(=O)C2(C)C)cc1F | male human | oral, 80 mg, single dose, fasted | 6920
